Measurements from different studies.
Lines come from different studies, so protocols differ. Several values in a cell are separate wells, animals, samples, runs or records.
Target: Serine/threonine-protein kinase 24 (STK24, Homo sapiens, UniProt Q9Y6E0)

C=CC(=O)Nc1cccc(-c2cnc3[nH]cc(C(=O)NC(C)(C)C)c3n2)c1 — inhibition (enzyme activity, inhibitor; 0.1 µM): 32%
COCC12C(=O)NC3C4(C(OC)CC1O)C1CC5(O)C(OC)C(O)C(OC(C)=O)(C1C5OC(=O)c1ccccc1)C3(O)C(OC)C24 (centres unmarked) — remaining activity (kinase activity, inhibitor, ProQinase kinase profiling; 25 µM; baseline: control): 108% and 104%
Cc1ccc(C(=O)Nc2ccc(CN3CCN(C)CC3)c(C(F)(F)F)c2)cc1C#Cc1cnc2cccnn12 — upper asymptote (target engagement, NanoBRET; human cells): 665
Cc1cccc(O[C@H]2CCC[C@@H](C(C)CNCc3ccncc3)C2)c1 (relative stereo) — inhibition (kinase activity, kinome panel screening; 1 µM): -6%
C=CC(=O)N1Cc2nc(-c3cc(-c4cc(Cl)cnc4Cl)c(F)cc3F)n(-c3ccncn3)c2C1 — inhibition (cell-free assay, inhibitor; 1 µM): 15.6%
COc1ccc(NC(=O)Nc2ccc3c(c2)C(=O)N(C(C)CO)CC(C)C(CN(C)Cc2ccc4c(c2)OCO4)O3)cc1 (centres unmarked) — remaining activity (kinase activity, KinaseProfiler; 0.03 µM, species human; baseline: control): 94%
C=CC(=O)N1CCc2ccc(-n3c(=O)ccc4cnc5ccc(-c6cnn(C)c6)cc5c43)cc21 — remaining binding (KINOMEscan; 1 µM; baseline: DMSO control): 79%
CS(=O)(=O)Nc1cccc(-c2csc3cnc(Nc4ccc(N5CCN(CCCCCOc6cccc7c6C(=O)N(C6CCC(=O)NC6=O)C7=O)CC5)cc4)nc23)c1 (centres unmarked) — inhibition (probe labelling, inhibitor, KiNativ chemoproteomics; MOLT-4; 1 µM): 20.1%
C=CC(=O)N1CCCC(n2c(=O)c3ncccc3n(Cc3ccc(Oc4ccccc4)cc3)c2=O)C1 (centres unmarked) — remaining binding (cell-free assay, competition with immobilised ligand; 1 µM): 99%
CN1CC[C@@H](COc2cnc(C#N)cc2-c2ccn3nc(NC(=O)C4CC4)cc3c2)C1 — inhibition (enzyme activity, inhibitor; 1 µM): 9%
CNC1C[S+]2CC[S+]3CC[S+](C1)[Ru-4]321([N]=C=S)[n]2c3ccc(OC)cc3c3c4c(c5cc(F)c[n+]1c5c32)C(=O)NC4=O (centres unmarked) — remaining binding (KinomeScan; 0.1 µM; baseline: untreated): 74%
NC(=O)[C@@H](O)C[C@H]1CCc2sc3ncnc(O[C@H]4CC[C@H](N5CCOCC5)CC4)c3c21 — inhibition (enzyme activity, inhibitor; 10 µM): 9%
N[C@H]1CC[C@H](Nc2nccc(-c3cccnc3Oc3ccc(NC(=O)NC4CC4)c4ccccc34)n2)CC1 — log2 LFQ intensity (kinobead competition pulldown; HEK293/HCT116 lysate mixture; 10 µM, 1 h, 4 °C; lower = stronger competition): 23.1 and 23.5 and 23.6 and 23.4
CNC(=O)C[C@H](Cc1ccc(C#N)cc1)NC(=O)c1cc(-c2ccc(CN[C@H](C)c3ccc(C)cc3)o2)ccc1Cl — activity vs control (enzyme activity, inhibitor; 1 µM): 81%
CC(C)=CC1OC(C)(C)C2C=C3C(=O)C(Cl)=CC(O)C3C3C(O)C4OC4C(=O)C132 (centres unmarked) — remaining binding (cell-free assay, competition with immobilised ligand; 10 µM): 84%
Cc1cnc2nc1Nc1cccc(c1)COC/C=C/COCc1cc(ccc1OCCN1CCOCC1)N2 — percent of control (concentration not given, gene name MST3): 100%
COc1ccc(C(=O)/C=C/c2ccccc2-c2c[nH]c3ccc(C#N)cc23)c(O)c1 — inhibition (enzyme activity, inhibitor; 20 µM): 2%

Excerpt of the above:
CNC1C[S+]2CC[S+]3CC[S+](C1)[Ru-4]321([N]=C=S)[n]2c3ccc(OC)cc3c3c4c(c5cc(F)c[n+]1c5c32)C(=O)NC4=O (centres unmarked) — remaining binding (KinomeScan; 0.1 µM; baseline: untreated): 74%
C=CC(=O)N1CCCC(n2c(=O)c3ncccc3n(Cc3ccc(Oc4ccccc4)cc3)c2=O)C1 (centres unmarked) — remaining binding (cell-free assay, competition with immobilised ligand; 1 µM): 99%
